Results from different studies.
Values joined by “and” are separate records of one study, mostly repeats; a detail may differ.

CCN1CCN(Cc2ccc(Nc3ncc(F)c(-c4cc(F)c5nc6n(c5c4)[C@H](C)CCC6)n3)nc2)CC1
non-CR/non-PD (human advanced solid tumours; 50 mg, phase Ia monotherapy RECIST 1.1): 0%

CC[C@@H](C)[C@@H](NC(=O)[C@@H](Cc1ccc(O)cc1)NC(=O)[C@H]1CCCN1C(=O)[C@@H](CCCNC(=N)N)NC(=O)[C@H](N)Cc1c[nH]cn1)C(=O)N[C@H](C)C(=O)N[C@H](Cc1c[nH]cn1)C(=O)N[C@H](CCCNC(=N)N)C(=O)N[C@@H](C(=O)N[C@H](Cc1ccc(O)cc1)C(=O)N[C@H](CO)C(=O)N[C@H](Cc1ccccc1)C(N)=O)C(C)C
IFN-γ+ CD4+ T cell frequency (ex vivo flow cytometry; B16 tumour-bearing mice, tumour; dose not given): 3.77% and 3.02% and 5.55% and 6.31% and 4.66%

CC(C)NCC(O)c1ccc(O)c(O)c1 (stereo not shown)
sarcomere length (ventricular cardiomyocytes, C57BL/6 mouse; dose not given, 0.612 s): 1.7 µm

N#Cc1ccn2c(-c3ccncc3)c(-c3ccc(F)cc3)nc2c1
log2 fold change (kinase binding, competitor, MIB/MS competition, measured: TPK2; Candida albicans cell lysate; 10 µM; reference: DMSO): -0.0553

O=C(O)CNC(=O)Cc1ccccc1
sarcomere length (ventricular cardiomyocytes, C57BL/6 mouse; dose not given, 0.008 s): 1.72 µm

CC(C)c1c(C(=O)Nc2ccccc2)c(-c2ccccc2)c(-c2ccc(F)cc2)n1CC[C@@H](O)C[C@@H](O)CC(=O)O
LDL-C (cynomolgus monkey, female, serum; 40 mg/kg or 25 mg/kg, day 176, 4224 h): 74.7 mg/dL

Nc1cc(C(Cl)=C(Cl)Cl)c(S(N)(=O)=O)cc1S(N)(=O)=O
inhibition (THP-1; pyroptotic LDH release; 2 µM, 40 min, together with: LPS then nigericin): 19%

Cc1cc([C@H]2C[C@H]3[C@@H](C)SC(N)=N[C@@]3(c3ccc(F)cc3F)CO2)on1
Aβ42 level (measured: Aβx-42; Mus musculus wild-type, brain; subcutaneous, 50 mg/kg, 5 h): 0.16 ng/g

Cc1cc(F)cc2c(CCC(=O)N[C@@H]3C(=O)NC[C@H]3O)c(-c3ccc(F)cc3)[nH]c12
reduction (proteinuria, measured: UACR AUC(0-48 h); APOL1 G2 multicopy mice; oral, 30 mg/kg twice daily, together with: IFNγ intraperitoneal; reference: vehicle): 95%

C[C@H]1C[C@H]2CSC(N)=N[C@@]2(c2nc(NC(=O)c3ccc(OC(F)F)cn3)cs2)CO1
percent change from baseline (measured: total Aβ; healthy adults, plasma; 200 mg single dose, 24 h post-dose; reference: placebo): -64.2%

CN[C@@H]1COc2c(S(=O)(=O)NC(=O)Nc3c4c(cc5c3CCC5)CCC4)cnn2C1
inhibition (measured: IL-1β; human participants, whole blood ex vivo; 900 mg twice daily, multiple doses, 156 h, together with: LPS/ATP; reference: baseline): 99.3%

CC#Cc1cncc(-c2ccc3c(c2)[C@@]2(N=C(C)C(N)=N2)[C@]2(CC[C@H](OC)CC2)C3)c1
reduction (measured: Aβ40; C57BL/6 mice, plasma; oral, 50, 100 or 200 µmol/kg single, down to LLOQ): 88%

OC(CCN1CCCCC1)(c1ccccc1)C1CC2C=CC1C2 (stereo not shown)
Change in alpha power, EEG, Fz/Cz (resting-state EEG; healthy elderly humans; oral, 4 mg, eyes open, LS mean; reference: baseline): 14.9%

C[C@H]1O[C@@H](O[C@H]2CC[C@@]3(C)[C@@H](CC[C@]4(C)[C@@H]3C=C[C@]35OC[C@@]6(CCC(C)(C)C[C@H]63)[C@@H](O)C[C@]54C)[C@]2(C)CO)[C@H](O)[C@@H](O[C@@H]2O[C@H](CO)[C@@H](O)[C@H](O)[C@H]2O)[C@H]1O
liver index (pair-fed control mice; oral, 15 mg/kg/day; reference: body weight): 3.12% and 3.47% and 3.09% and 2.77% and 3.56% and 2.9%

CNC(=O)[C@@H](NC(=O)[C@H](CC(C)C)[C@H](O)C(=O)NO)C(C)(C)C
inhibition (THP-1; pyroptotic LDH release; 2 µM, 40 min, together with: LPS then nigericin): -16.7%

NCC(=O)Nc1cncc(-c2nn3c(=O)cc(N4CCNCC4)nc3s2)c1
inhibition of platelet aggregation (light transmission aggregometry; human, stable CAD on aspirin, platelets ex vivo; subcutaneous, 0.075 mg/kg, 24 h post-dose, median, together with: ADP 20 µM): 2.7%

A few entries again:
CC(C)NCC(O)c1ccc(O)c(O)c1 (stereo not shown)
sarcomere length (ventricular cardiomyocytes, C57BL/6 mouse; dose not given, 0.612 s): 1.7 µm

CC[C@@H](C)[C@@H](NC(=O)[C@@H](Cc1ccc(O)cc1)NC(=O)[C@H]1CCCN1C(=O)[C@@H](CCCNC(=N)N)NC(=O)[C@H](N)Cc1c[nH]cn1)C(=O)N[C@H](C)C(=O)N[C@H](Cc1c[nH]cn1)C(=O)N[C@H](CCCNC(=N)N)C(=O)N[C@@H](C(=O)N[C@H](Cc1ccc(O)cc1)C(=O)N[C@H](CO)C(=O)N[C@H](Cc1ccccc1)C(N)=O)C(C)C
IFN-γ+ CD4+ T cell frequency (ex vivo flow cytometry; B16 tumour-bearing mice, tumour; dose not given): 3.77% and 3.02% and 5.55% and 6.31% and 4.66%
